Experimental data from different studies.
Each line is one published result; not all experiments were run side by side. Numbers after ± are the reported error.

SMILES | organism | assay | system | conditions | scale | endpoint | result
Cc1cc(/C=C/C#N)cc(C)c1-n1cnc2cnc(Nc3ccc(C#N)cc3)nc21 | HIV-1 wild type | – | – | – | relative to: CC50 over EC50 | therapeutic index | > 25000
COC(=O)c1cc(O)c(=O)c(O)cc1C | hepatitis B virus | – | HepDES19 | – | relative to: CC50 over EC50 | selectivity index | 60 fold
CC(=Nc1ccccc1)c1c(C)cc(=O)n(O)c1O | hepatitis B virus | viral replication, qPCR | HepDES19 genotype D | – | relative to: CC50 over EC50 | selectivity index | 46.2
O=C(O)C(Cc1ccccc1)N1CSC(=S)N(CCN(CCN2CN(C(Cc3ccccc3)C(=O)O)CSC2=S)CCN2CN(C(Cc3ccccc3)C(=O)O)CSC2=S)C1 (stereo not shown) | Leishmania tropica | – | promastigote | – | relative to: haemolysis CC50 over IC50 | selectivity index | 0.19
CC(C)=CCNCCOC1C2CC3CC(C2)CC1C3 (stereo not shown) | Trypanosoma brucei | – | – | – | relative to: CC50 HepG2 over IC50 T. brucei | selectivity index | 3.1
CC1CCC(C(C)C)C(OCC(=O)NC(C)c2ccc(-n3cncn3)cc2)C1 (stereo not shown) | Trypanosoma brucei | cell viability, flow cytometry, PI | bloodstream form | 24 h | – | EC50 | 17.1 ± 4.4 µM
CC(C)=CCC/C(C)=C/CNCCOC1C2CC3CC(C2)CC1C3 (stereo not shown) | Trypanosoma brucei | – | – | – | relative to: CC50 HepG2 over IC50 T. brucei | selectivity index | 3.8
CCC(=O)N(C)c1ccc(Cl)c(Cl)c1 | Salmonella typhimurium | Ames test | TA98 | 1.00 mg/plate, with rat liver S9 | – | revertants | 10 ± 2.6 revertants/plate
COc1ccc(CNc2nc(N3CCC[C@H]3CO)ncc2C(=O)NNC(=O)c2cnc(N3CCC[C@H]3CO)nc2NCc2ccc(OC)c(Cl)c2)cc1Cl | Salmonella typhimurium | – | TA102 | 500 µg/plate, together with: rat liver S9 | – | revertant count | 208 ± 11
COc1ccc(-c2cnc3[nH]cc(C#Cc4cccnc4)c3c2)cc1OC | SARS-CoV-2 USA-WA1/2020 | alamarBlue | Vero E6, infected | 24 h post infection | – | CC50 | > 20 µM
COc1ccc(CNc2nc(N3CCC[C@H]3CO)ncc2C(=O)NN)cc1Cl | Salmonella typhimurium | – | TA102 | 500 µg/plate, together with: rat liver S9 | – | revertant count | 241 ± 25
CC(C)=CCC/C(C)=C/CC/C(C)=C/CNCCOC1C2CC3CC(C2)CC1C3 (stereo not shown) | Trypanosoma brucei | – | – | – | relative to: CC50 HepG2 over IC50 T. brucei | selectivity index | 13
CCS(=O)(=O)N1CC(CC#N)(n2cc(-c3ncnc4[nH]ccc34)cn2)C1 | SARS-CoV-2 USA-WA1/2020 | alamarBlue | Vero E6, infected | 24 h post infection | – | CC50 | > 20 µM
